Results pooled from the literature.
A part holds a random share of what one study measured.

Sample 1
Target: POU domain, class 6, transcription factor 1, POU and homeodomain (POU6F1, Homo sapiens, UniProt Q14863, residues 311-611)
Method: protein-binding microarray
Form: hairpin DNA
Sample: in vitro
Tested at: not given
Notes: whole hairpin DNA, median over replicate spots
Relative to: not given
Direction: higher = stronger binding
Constant ends, left off below: GAGGCCAT … ATGGCCTCACACTCTT
Construct (chain): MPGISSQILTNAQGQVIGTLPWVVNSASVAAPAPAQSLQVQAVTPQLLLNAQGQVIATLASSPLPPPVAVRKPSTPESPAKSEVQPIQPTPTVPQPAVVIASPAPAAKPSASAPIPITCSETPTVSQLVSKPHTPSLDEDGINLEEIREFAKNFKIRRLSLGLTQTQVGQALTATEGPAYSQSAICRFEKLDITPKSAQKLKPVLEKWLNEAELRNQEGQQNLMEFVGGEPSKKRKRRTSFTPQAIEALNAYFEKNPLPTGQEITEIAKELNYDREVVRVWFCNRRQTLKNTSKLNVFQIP
`AATCAGGTGCCTCCTGGCACCTGATT` gave a median fluorescence of 692 a.u.
With `AAGTAGGTGCCTCCTGGCACCTACTT (5mC at 32)` the median fluorescence was 851 a.u.
`TATGAGGTGCCTCCTGGCACCTCATA` has a median fluorescence of 563 a.u.
For `AATGCGGTGCCTCCTGGCACCGCATT`, the median fluorescence was 524 a.u.
With `AATGAGGTGCCTCCTGGCACCTCATT (5mC at 31)` the median fluorescence was 1750 a.u.

Sample 2
Target: Sal-like protein 4, full length isoform B (SALL4, Homo sapiens, UniProt Q9UJQ4-2, residues 1-616)
Method: universal PBM
Form: double-stranded DNA, one strand shown
Sample: in vitro
Tested at: not given
Notes: 8-mer, flanks averaged, mean of replicates
Direction: higher = stronger binding
`CGATACGA` has an E-score of -0.0101.
`GGAGCTGA` gave an E-score of -0.193.
With `CGTATGCC` the E-score was -0.182.
The E-score of `GCCAGCTA` is reported as -0.22.
For `CATCCTAG`, the E-score was -0.099.
`TCCATGCA` has an E-score of 0.0766.

Sample 3
Target: Fragile X messenger ribonucleoprotein 1, C-terminal low-complexity region (Fmr1, Mus musculus, UniProt P35922)
Method: RNA Bind-n-Seq
Form: RNA
Sample: in vitro
Tested at: 200 nM
Notes: whole 134-nt RNA, ends assumed
With: 150 mM KCl
Relative to: input library
Direction: higher = stronger binding
With `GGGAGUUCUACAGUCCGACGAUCAGUCCUGUGCUACACAUCGUAUGUACCGAAUCGGGGUGGGGAAAAAGGGGUUUGGGGAAAGUAUUAUGUUACGCCGUUCGGAUCUGCACUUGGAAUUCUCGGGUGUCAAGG` the log2 enrichment was 0.773.
`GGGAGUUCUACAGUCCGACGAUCUGGCCCUGGUGGCAUGCGGGGAGGAAGAGGUGGCCUCAUGGUUCGUGGUGGUCCCGGUGGAAUGUUCAGAGGUGGCCGUGGUGGAGACAGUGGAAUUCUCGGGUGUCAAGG` gave a log2 enrichment of -0.00585.
The log2 enrichment of `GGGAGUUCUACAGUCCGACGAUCCUGUGCUACACAUCGUAUGUACCGAAUCGGGGUUUUUUUGGUUUUUUUGGGUUUUUUUGGGGAAAGUAUUAUGUUACGCCGUUCGGAUCUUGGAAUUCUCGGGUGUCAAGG` is reported as -0.308.
`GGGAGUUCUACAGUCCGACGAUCCACAGACAACACGCACCCACACAGACACAGAGGGAAGGGGUUGGGAUGGGGACAGGGUGCACAGCAGGGCGGGGUGGGACCCCAGCCCCUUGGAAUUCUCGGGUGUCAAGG` gave a log2 enrichment of 1.17.
The log2 enrichment of `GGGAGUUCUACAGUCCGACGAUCAAGUCCUGUGCUACACAUCGUAUGUACCGAAUCGGGGUUUGGGGAGGGGAAAGGGGAAAGUAUUAUGUUACGCCGUUCGGAUCUGCACUUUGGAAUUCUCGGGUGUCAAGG` is reported as 0.768.
For `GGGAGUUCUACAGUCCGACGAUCACCAUGCAGGUGGGCAUGUUUGGGAAGUGGGGCAAGGGGGGGAUAGGGAGGGGGGUAACACUUUGGGAACAGGUGGUCCCAGGUCGUUUCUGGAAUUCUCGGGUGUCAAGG`, the log2 enrichment was 0.726.

Mixed results
`PhoQ, residues 284 288 289 292 302 303 SSCLAV` has a fold induction of 18.3 (PhoP, residues 12 14 15 18 19 STHWV (Escherichia coli, UniProt P23836); Sort-seq, refers to: YFP reporter; E. coli; PhoQ-PhoP variant library, with: 10 µM Mg2+; relative to: high Mg2+ state, higher = stronger signaling).

Excerpt of the above (sample 3):
`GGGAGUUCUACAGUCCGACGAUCCACAGACAACACGCACCCACACAGACACAGAGGGAAGGGGUUGGGAUGGGGACAGGGUGCACAGCAGGGCGGGGUGGGACCCCAGCCCCUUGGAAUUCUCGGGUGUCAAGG` gave a log2 enrichment of 1.17.
The log2 enrichment of `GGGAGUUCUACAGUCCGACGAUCAAGUCCUGUGCUACACAUCGUAUGUACCGAAUCGGGGUUUGGGGAGGGGAAAGGGGAAAGUAUUAUGUUACGCCGUUCGGAUCUGCACUUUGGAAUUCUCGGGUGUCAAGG` is reported as 0.768.
